Results from different studies.
Compare with care: the assays were run in different laboratories. Several values in a cell are separate wells, animals, samples, runs or records. Numbers after ± are the reported error.

Structure (SMILES)	test	test system	conditions	how to read	endpoint	result
C=CC(=O)N1CC2C(=O)N(CCN(C)C)c3c(c4cc(Cl)c(-c5c(O)cccc5F)nc4n(-c4c(C)ccnc4C(C)C)c3=O)N2CC1C (centres unmarked)		SW837, mouse xenograft	oral, 30 mg/kg once daily		tumour regression	114%
CC(C)C[C@H](NC(=O)[C@H](Cc1ccccc1)NC(=O)[C@H](C)NC(=O)[C@@H](CS)NC(=O)CNC(=O)[C@H](N)CO)C(=O)N[C@@H](CO)C(=O)N[C@H](C(=O)N[C@@H](CCCCN)C(=O)N[C@@H](CCCCN)C(=O)N[C@@H](CCC(N)=O)C(=O)N[C@@H](Cc1ccccc1)C(=O)N[C@@H](CCC(=O)O)C(=O)N[C@@H](CCC(=O)O)C(=O)N[C@@H](CC(C)C)C(=O)N[C@H](C(=O)N[C@@H](CC(C)C)C(=O)NCC(=O)N[C@@H](CCC(=O)O)C(=O)N[C@@H](Cc1ccccc1)C(=O)N[C@@H](CC(C)C)C(=O)N[C@H](CCCCN)C(=O)N[C@H](CC(C)C)C(=O)N[C@H](CC(=O)O)C(=O)N[C@@H](CCCNC(=N)N)C(=O)N[C@H](CCCNC(=N)N)C(=O)N[C@@H](CCCNC(=N)N)C(=O)N[C@@H](CCCCN)C(=O)O)[C@@H](C)O)C(C)C		female nude mouse A549 xenograft	intratumoral, 50 µM, 28 days, three times weekly	relative to: untreated	tumour volume	~20%
CC(C)c1ccc(N(C)c2ccc3c(c2)OCC[C@H]3CNc2cnccc2C(=O)O)cc1		mouse, OCI-LY19 xenograft	15 mg/kg QD, day 21		tumour growth inhibition	83%
COC(=O)C1CN1S(=O)(=O)c1ccc2cc(C)ccc2c1 (centres unmarked)		mouse, Lewis lung carcinoma	ip, 100 mg/kg, 360 h		tumour volume	769 mm3
CO.Cc1ccc2c(Cl)cc(Cl)c([O-])c2n1.Cc1ccc2c(Cl)cc(Cl)c([O-])c2n1.[Co+2].c1ccc2nc3c4cccnc4c4ncccc4c3nc2c1		nude mouse, HeLa xenograft	2.0 mg/kg		tumour weight	0.88 ± 0.102 g
CC[C@H](C)[C@@H]1NC(=O)[C@H](CCSC)NC(=O)[C@H](Cc2c[nH]c3ccccc23)NC(=O)[C@H](CC(N)=O)NC(=O)[C@@H](NC(=O)CCOCCOCCOCCNC(=O)CN2CCN(CC(=O)O)CCN(CC(=O)O)CC2)CSSC[C@@H](C(=O)O)NC(=O)[C@H](CCC(=O)O)NC(=O)[C@H](CCCCN)NC(=O)[C@H](CC(N)=O)NC1=O [gallium-68 labelled]	PET	mouse, CHO-hLAG-3 xenograft	iv, 60 min		tumour uptake	0.28 ± 0.02 %ID/g
CC1(C)CCC(CN2CCN(c3ccc(C(=O)NS(=O)(=O)c4ccc(NCC5CCOCC5)c([N+](=O)[O-])c4)c(Oc4cnc5[nH]ccc5c4)c3)CC2)=C(c2ccc(Cl)cc2)C1		mouse Maver1 xenograft	oral, 5 mg/kg once daily, day 14		tumour growth inhibition	38%
COc1cc(N2CCN(C(=O)C3CCCN3)CC2)ccc1Nc1ncc(Cl)c(Nc2ccccc2P(C)(C)=O)n1 (centres unmarked)		NCI-H3122 xenograft, female nude mouse	intraperitoneal, 10 mg/kg, every other day		tumour volume	160 mm3 and 133 mm3 and 131 mm3 and 76.6 mm3 and 163 mm3
